Measured values pooled from the literature.
Each numbered part is a random draw from the data of one study; scales do not carry over between parts. Changes are numbered by the printed parent chain.

Series 1
Target: Centromere-binding protein 1, full length, His-tagged (CBF1, Saccharomyces cerevisiae, UniProt P17106, residues 1-351)
Chain of UniProt P17106 (whole entry, looked up): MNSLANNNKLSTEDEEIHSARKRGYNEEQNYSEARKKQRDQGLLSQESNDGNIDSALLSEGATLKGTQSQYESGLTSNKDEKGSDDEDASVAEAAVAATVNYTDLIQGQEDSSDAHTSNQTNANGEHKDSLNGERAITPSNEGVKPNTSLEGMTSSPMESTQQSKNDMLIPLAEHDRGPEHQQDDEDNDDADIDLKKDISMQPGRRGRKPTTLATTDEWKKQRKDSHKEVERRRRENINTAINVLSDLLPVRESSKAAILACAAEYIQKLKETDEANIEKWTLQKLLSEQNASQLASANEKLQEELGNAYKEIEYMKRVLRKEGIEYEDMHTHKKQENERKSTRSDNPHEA
Method: competition protein-binding microarray
Form: double-stranded DNA, one strand shown
Matrix: in vitro
Tested at: 2 µM
Notes: whole 60-bp probe, lowest competitor level
With: Pho4 competitor, 0.05 µM
Reading: higher = stronger binding
Shared flanks, not repeated: … GTCTTGATTCGCTTGACGCTGCTG
`TGCCCTTCGCAAAGCACCGTGCTTTTAATGGCAATC` gave a fluorescence intensity of 63.9 a.u.
The fluorescence intensity of `CGGGGTTAAGTTTGGACTGTGGGTGGCTTGCAGCAG` is reported as 78.9 a.u.
`AAGACCGGTGCTTTGACCGTTTCCAATACGGAAAGA` gave a fluorescence intensity of 66.3 a.u.
For `AGGCCCTAGGGGCCGTGCGTGGAGTAAAAAGGTTTG`, the fluorescence intensity was 52.5 a.u.
For `CGGGGTTAAGTTTGCTCGGTGGGTGGCTTGCAGCAG`, the fluorescence intensity was 69.3 a.u.
With `TGGGCTCACCCGCGGGTCGTGATGGCGATTCAGCAA` the fluorescence intensity was 67.8 a.u.
With `AACTCCAAATATCTTCACGTGGCTGCCTGTTCTAAA` the fluorescence intensity was 1120 a.u.
With `AGGCCCAAATGCTTGCACAGGCACAAGCTCAGGCTC` the fluorescence intensity was 60.3 a.u.
`TCTCAATTATTGACTCACATGCCTCCTGGTAATACG` has a fluorescence intensity of 222 a.u.
For `GTAGGAGCCCCTTAGGGCGTGCCAGTAGTTTAAAGC`, the fluorescence intensity was 70.8 a.u.
`CTGAGCATAGCCAATCACGTGGCCCACTCCCCGGCT` gave a fluorescence intensity of 4940 a.u.
With `ATGTTCCTCAAGGTGCTCGTGTCCACACCGAAAAAT` the fluorescence intensity was 95.3 a.u.
The fluorescence intensity of `ACCGGTTTTCTCGTCCACGTGAACGGTGTCAACACC` is reported as 1910 a.u.
`CGACATTCAGACCTACACGTACAAAACACGAATGCT` gave a fluorescence intensity of 87.5 a.u.
With `TGACTGAAGACGAATTACGTGCTTTTTTCCAACCTT` the fluorescence intensity was 78.2 a.u.
With `CTTTCCCGATCTTGTAATGTGGGTGTAGCACATTTG` the fluorescence intensity was 82.8 a.u.
`GATCAGCATATCCGTCACGTTCTGCTCATCGGGACT` has a fluorescence intensity of 465 a.u.
With `GTCTTGTCTCATTTTCACGTGACTTTCCCCACTTCA` the fluorescence intensity was 4860 a.u.
With `CGGGCTGCCCCGGGTCACGTGACTCGGACACCGCCC` the fluorescence intensity was 35200 a.u.
With `AATAAGTCGATCCAACACGTGGTGAGATACTAGCAG` the fluorescence intensity was 1220 a.u.

Series 2
Target: RING finger protein unkempt homolog, zinc fingers 1-6, GST-SBP tag (UNK, Homo sapiens, UniProt Q9C0B0, residues 30-357)
Method: RNA Bind-n-Seq
Form: RNA
Matrix: in vitro
Tested at: not given
Notes: RNA with constant flanks, human and mouse sites, ends assumed
Reference: input RNA pool
Reading: higher = stronger binding
Shared flanks, not repeated: GGGAGUUCUACAGUCCGACGAUC … CAACAGAGGAUUGAGCAUCA
Residues (chain): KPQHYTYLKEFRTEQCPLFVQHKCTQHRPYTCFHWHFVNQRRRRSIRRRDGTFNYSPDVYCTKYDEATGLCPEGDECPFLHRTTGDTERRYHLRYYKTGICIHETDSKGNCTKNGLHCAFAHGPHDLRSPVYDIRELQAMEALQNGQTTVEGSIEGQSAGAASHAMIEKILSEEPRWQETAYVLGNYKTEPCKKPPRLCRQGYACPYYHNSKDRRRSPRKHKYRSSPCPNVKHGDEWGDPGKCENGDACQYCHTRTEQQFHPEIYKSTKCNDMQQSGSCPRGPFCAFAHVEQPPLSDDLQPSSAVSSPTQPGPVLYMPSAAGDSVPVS
For `AAGAUCCUCUCGGUAAAUGGCCAAGAUCUGAAGAACCUGCUGCACCAAGAUGCUGUAGACCUCUUCCGUAAUGCGGGAUGUGCUGUGUCCCUGAGAGUACAGCACAGGUUGCUGGUUGUU`, the bound/input enrichment was 0.0876 ratio.
The bound/input enrichment of `UCUAAGGAGGCUAUGGAGAGAGCAAAUGGGAUGGAGCUGGACGGUAGAAGAAUCCGUGUGGAUUAUUCUAUCACCAAGAGAGCGCACACACCCACACCAGGCAUUUACAUGGGCAGACCA` is reported as 0.215 ratio.
For `UCAGAUAAUUCAAGAUUUCCACUUGCAGUUGUAGAAGAACCAAUUACAGUGGAAGUGGCUUUUAGAAACCCUUUGAAAGUUCUACUUUUGUUGACUGAUUUGUCAUUGCUUUGGAAGUUU`, the bound/input enrichment was 0.224 ratio.
`AAGCUUGGAGAAGAACCAGGGGAUGAGGUUGAUGUUCCAAAGGAUGAGCUUAGUAUAGAUUUAGGAAUGUUAUUUAUCGGUGGAACCAAACCUCCCUAGAGAGUACUGUGAAAGCUGGCA` has a bound/input enrichment of 22.2 ratio.
With `ACACGAUGUUUUUUCAAGAUUUUAGACCCUUUCUAAGUAGCAGUCCACUGGACCAAGAUAAUAGAGCCAAUGAAAGGGGUCACCAGACUCACACUGACUUCUGGGGAGCAAGACCUCCAC` the bound/input enrichment was 0.415 ratio.
`CAUGUGACUGUGAAGAAGCUGUUUGUUGGUGGAAUUAAGGAAGAUACUGAGGAACACCACCUUAGAGAUUACUUUGAAGAGUAUGGAAAAAUUGAUACUAUUGAAAUAAUUACCGAUAGG` has a bound/input enrichment of 2.8 ratio.
With `GAGUGCCUGAGCAACAUCCGCGAGUUCCUGCGCGCCUGCGGGGCGUCCCUGCGCCUAGAGACUUUUGAUGCAAAUGAUUUGUAUCAGGGGCAGAACUUUAACAAGGUCCUCAGCUCCUUG` the bound/input enrichment was 0.123 ratio.
With `UCCUGGCUUUUCUCGUUUUCUCACUUGCUCUCUUGUUCUCUGUUUUUUUAAACCAAUUUUACUUUAUGAAUAUAUUCAUGACAUUUGUAAUAAAUGUCUUGAGAAAGAAUUUGUUUCAUG` the bound/input enrichment was 0.753 ratio.
For `GAAUUGUCCCAUUUGCUGUCUUUAGAGGCCACGGCUUCAUUUCUAUGCGUAAAAAGCUCAUUUAGCAAUGUAGUUAUUUCAGUAUUUAUUUCUAUUAUGGAAUCCCUGGGGUUCGGAAUG`, the bound/input enrichment was 4.89 ratio.
With `CGUCUUAACUAUGCCCAGUGGUAUCCAAUUGUUGUAUUUCUUAACCCUGAUUCUAAGCAAGGAGUAAAAACAAUGAGAAUGAGGUUAUGUCCAGAAUCUCGGAAAAGUGCCAGGAAGUUA` the bound/input enrichment was 0.252 ratio.
`ACUGAAAUACUAGUAAAUUACUUGAGUUUUUCACGAUGACUUCAGAGGAGGGGUCAUCACUAGGUGCUUUGUCCUUUUUGUACUAUGAUUCACCCAUCUCUUGGAUUGGAUGUAGCAAUA` gave a bound/input enrichment of 0.721 ratio.

Series 3
Target: ABI1, truncated, D143A, DHFR fusion (Arabidopsis thaliana)
Method: DHFR PCA, deep sequencing
Matrix: yeast
Notes: methotrexate growth selection, single substitutions
With: (+)-ABA 0.11 µM
Reference: wild-type fitted maximum
Reading: higher = stronger binding
Starting sequence: PYL1, truncated, DHFR fusion (Arabidopsis thaliana); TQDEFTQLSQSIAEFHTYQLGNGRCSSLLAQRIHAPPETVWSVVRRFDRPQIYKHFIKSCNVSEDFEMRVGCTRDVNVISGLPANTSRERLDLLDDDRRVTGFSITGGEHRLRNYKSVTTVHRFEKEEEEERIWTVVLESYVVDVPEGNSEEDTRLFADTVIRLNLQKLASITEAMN; partner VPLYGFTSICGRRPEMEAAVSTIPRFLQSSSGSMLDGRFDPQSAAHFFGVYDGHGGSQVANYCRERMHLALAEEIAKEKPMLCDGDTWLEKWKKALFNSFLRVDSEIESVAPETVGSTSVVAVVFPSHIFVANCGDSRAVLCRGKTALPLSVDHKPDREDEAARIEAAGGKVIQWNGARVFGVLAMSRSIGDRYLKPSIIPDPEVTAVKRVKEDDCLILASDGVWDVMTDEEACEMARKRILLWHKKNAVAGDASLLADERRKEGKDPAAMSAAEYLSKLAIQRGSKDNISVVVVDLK
`G23A` — result for “relative binding score”: 3.7%.
`T106V`: “relative binding score” 72%.
`G71P`: “relative binding score” 4.28%.
For `F157N`, “relative binding score” read 1.76%.
Under “relative binding score”, `E151W` is recorded as 4.14%.
For `Q31D`, “relative binding score” read -1.99%.
Under “relative binding score”, `S59W` is recorded as 2.53%.
Under “relative binding score”, `R98C` is recorded as -8.11%.
Under “relative binding score”, `E125N` is recorded as 21.5%.
`T1N` — result for “relative binding score”: 38%.
`Q7P`: “relative binding score” 7.86%.
For `P50A`, “relative binding score” read -5.6%.
`R69T`: “relative binding score” 30.5%.
Under “relative binding score”, `E38R` is recorded as 0.613%.
`L169T` — result for “relative binding score”: 3.18%.
`I162L`: “relative binding score” 9.36%.
`P36I`: “relative binding score” -1.93%.

Series 4
Target: CCNE1, cyclin fold, Cln2 fusion (human)
Method: yeast growth competition, sequencing
Matrix: yeast
Notes: strong parent motif
Reference: not given
Reading: higher = stronger binding
Starting sequence: ASZ1 docking peptide (human); GFGFLLFICKLTF; partner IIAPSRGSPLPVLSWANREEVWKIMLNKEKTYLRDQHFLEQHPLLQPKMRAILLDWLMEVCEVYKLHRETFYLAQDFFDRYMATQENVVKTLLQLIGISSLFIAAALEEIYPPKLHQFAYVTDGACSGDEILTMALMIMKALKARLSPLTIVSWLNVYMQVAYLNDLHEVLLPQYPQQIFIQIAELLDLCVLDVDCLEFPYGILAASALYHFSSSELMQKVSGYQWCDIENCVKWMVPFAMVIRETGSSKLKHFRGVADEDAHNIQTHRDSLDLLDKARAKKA
`GFGALLFICKLTF [F4A]` — result for “normalised enrichment score”: 0.651.
Under “normalised enrichment score”, `GFGFLLFICKLAF [T12A]` is recorded as 1.28.
`GAGFLLFICKLTF [F2A]` — result for “normalised enrichment score”: 1.09.
Under “normalised enrichment score”, `GFGFLAFICKLTF [L6A]` is recorded as 1.1.
`GFGFLLFICKATF [L11A]`: “normalised enrichment score” 1.38.
For `GFAFLLFICKLTF [G3A]`, “normalised enrichment score” read 1.34.
`GFGFLLAICKLTF [F7A]`: “normalised enrichment score” 0.71.
